Measurements collected from several papers.
Every numbered part comes from another study and shows a few of its results, in no order.

Series 1
Target: Prothrombin, mature alpha-thrombin (F2, Homo sapiens, UniProt P00734)
Technique: aptamer microarray, sandwich
Form: DNA with 2'F-ANA
Matrix: in vitro
Tested at: 200 nM
Setting: whole 15-mer aptamer, many near background
With: Cy3 exosite-II aptamer, 400 nM
Direction: higher = stronger binding
Sequence: GGTTGGTGTGGTTGG
Modification | mean fluorescence intensity [a.u.]
2'F-ANA at 2 5 8 9 10 11 13 14 | 51.9
2'F-ANA at 2 3 5 6 7 8 9 11 13 14 | 63.9
2'F-ANA at 1 3 6 8 9 10 12 | 103
2'F-ANA at 2 3 6 8 12 14 15 | 424
2'F-ANA at 1 2 5 7 8 9 14 | 46
2'F-ANA at 2 5 6 8 9 11 12 13 14 15 | 48.8
2'F-ANA at 2 3 8 11 14 | 474
2'F-ANA at 2 4 5 11 12 | 124
2'F-ANA at 4 7 8 9 12 13 15 | 395
2'F-ANA at 2 4 7 8 11 14 | 174
2'F-ANA at 1 3 4 10 12 13 14 15 | 72.2
2'F-ANA at 1 2 4 5 10 11 12 | 48.6
2'F-ANA at 2 3 5 6 11 13 | 92.7
2'F-ANA at 2 3 6 7 8 13 14 | 342
2'F-ANA at 2 4 6 7 10 14 15 | 59.8
2'F-ANA at 1 2 5 8 9 10 11 14 | 50.1
2'F-ANA at 1 2 5 10 13 14 15 | 49.1
2'F-ANA at 1 3 8 9 12 14 | 147
2'F-ANA at 2 6 7 9 11 12 13 14 15 | 157
2'F-ANA at 2 3 4 6 11 14 | 203
2'F-ANA at 1 2 7 12 14 15 | 71.5
2'F-ANA at 1 2 7 9 12 14 | 72.6
2'F-ANA at 3 6 8 9 11 12 13 14 | 523

Series 2
Target: Histone acetyltransferase KAT6A, both winged helices, GST fusion (KAT6A, Homo sapiens, UniProt Q92794, residues 1-181)
Technique: protein binding microarray
Form: double-stranded DNA, one strand shown
Matrix: in vitro
Tested at: not given
Setting: 8-mer, flanks averaged, mean of 2 arrays, mostly near background
Reference: not given
Direction: higher = stronger binding
Residues (chain): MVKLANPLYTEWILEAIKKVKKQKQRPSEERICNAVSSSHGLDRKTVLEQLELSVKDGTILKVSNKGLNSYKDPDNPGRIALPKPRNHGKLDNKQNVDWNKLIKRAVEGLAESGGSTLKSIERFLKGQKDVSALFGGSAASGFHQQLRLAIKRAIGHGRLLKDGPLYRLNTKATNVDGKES
Sequence | E-score
AAAAGTAG | -0.198
CCTATCGA | -0.127
AGAGGCAC | -0.1
GAAGGTAA | -0.115
ACGACAGT | -0.133
AGCTATCC | -0.168
ACCTAGTA | -0.0943
AATTTAGG | -0.182
CAATGCGA | -0.097
AATCGTAA | -0.00575
CACCCGAA | 0.0906
ATTCGACG | -0.00086
CAATGCCG | 0.307
CACCTGAA | -0.0653
GTCACGCA | 0.0713
TAGAGCCA | -0.169
CTAATATA | -0.0261
CCGCTGCA | 0.168
CCAGTCAC | 0.0354
CCTAAAAA | -0.129
CCAGTAAA | 0.00592
CGTCTCCC | 0.0943
CTCACGCA | 0.0201
ACATAGAG | -0.157
CGGTAGAA | 0.101

Series 3
Target: Sal-like protein 4, full length isoform B (SALL4, Homo sapiens, UniProt Q9UJQ4-2, residues 1-616)
Technique: universal PBM
Form: double-stranded DNA, one strand shown
Matrix: in vitro
Tested at: not given
Setting: 8-mer, flanks averaged, mean of replicates
Direction: higher = stronger binding
Residues (chain): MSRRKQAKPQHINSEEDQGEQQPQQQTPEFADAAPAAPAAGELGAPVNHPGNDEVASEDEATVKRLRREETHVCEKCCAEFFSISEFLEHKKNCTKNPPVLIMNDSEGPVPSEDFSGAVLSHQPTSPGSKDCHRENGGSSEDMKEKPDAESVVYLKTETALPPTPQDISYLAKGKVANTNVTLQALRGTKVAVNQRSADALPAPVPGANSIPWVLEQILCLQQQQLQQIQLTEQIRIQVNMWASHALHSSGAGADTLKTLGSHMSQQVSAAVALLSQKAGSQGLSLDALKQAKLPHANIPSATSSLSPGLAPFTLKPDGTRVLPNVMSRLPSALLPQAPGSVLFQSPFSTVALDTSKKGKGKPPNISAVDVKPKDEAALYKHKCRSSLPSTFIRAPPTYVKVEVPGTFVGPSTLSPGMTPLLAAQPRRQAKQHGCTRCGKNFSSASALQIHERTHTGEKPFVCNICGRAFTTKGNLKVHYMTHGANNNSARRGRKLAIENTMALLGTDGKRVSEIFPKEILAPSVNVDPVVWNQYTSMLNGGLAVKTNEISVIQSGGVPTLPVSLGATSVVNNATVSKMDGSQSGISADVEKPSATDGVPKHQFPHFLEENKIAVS
Sequence | E-score
CACTCGTA | -0.0406
GAGGGCGC | -0.369
AATTCTAC | 0.129
AAGATGCA | 0.136
GCAGAAAC | 0.0673
GTATGCTA | 0.176
ATGCGACA | 0.0372
CTAGCTAA | -0.13
CTATTCAA | 0.235
CGTAAAGC | -0.0819
CCATAAGC | 0.0683
CGGCGATA | -0.0289
AAGTTGGA | 0.106
ACTAGATC | 0.0315
CCCCGGCC | -0.317
AGTCAATC | 0.023
AACTGCCA | -0.127
ACGTATGC | 0.0895
CATGGCGG | -0.217
CGCGATAC | -0.0484
CGATCAAA | -0.0519

Series 4
Target: Fragile X messenger ribonucleoprotein 1, C-terminal low-complexity region (Fmr1, Mus musculus, UniProt P35922)
Technique: RNA Bind-n-Seq
Form: RNA
Matrix: in vitro
Tested at: 200 nM
Setting: whole 134-nt RNA, ends assumed
With: 150 mM KCl
Reference: input library
Direction: higher = stronger binding
Shared flanks, not repeated: GGGAGUUCUACAGUCCGACGAUC … UGGAAUUCUCGGGUGUCAAGG
Sequence | log2 enrichment
UGCUGAAGCUCACACCCGUGGACCACCCAGACUGCCUGCCGCUACAGGAUGCCCUCCGCAUCUCCCAGGACUUCUUUCCGGCAUCAGUGU | -0.309
GCAGGAAGUAAAAACAAAUGGAAAUGCUUCGGAUAGUGGCAGGGGUGGGGGUUGCUAAGGAAAGGGUGGGAUGGGAGUGGGUUAAGAGUU | 0.304
GCCGGAAGUAAAAACAAAUGGAAAUGCUUCGGAUAGUGGCAGGGGUGGGGGUUGCUAAGGAAAGGGUGGGAUGGGAGUGGGUAAAGAGUU | 0.698
UCCUGUGCUACACAUCGUAUGUACCGAAUCAAAUUUUUAAAUUUUUUUAAACCCCCAAAAAAGUAUUAUGUUACGCCGUUCGGAUCUGCA | 0.429
ACAAUGCAGGUGGGCAUCUUUGGGAAGUGGGGCAAGGGGGGGAUAGGGAGGGGGGUAACACUUUGGGAACAGGUGGUCCCAGGUCGUUUC | 0.782
AGGCCCUGGUGGCAUGCGGGGAGGAAGAGGUGGCCUCAUGGAUCGUGGUGGUCCCGGUGGAAUGUUCAGAGGUGGCCGUGGUGGAGACAG | 0.184
UCUCUUAUGCUAUUGGAGUUUCUCAUCCAUUAUCUAUCUCCAUUUUCCAUUAUGGUACCUCUCAGAAGAGUGAGAGAGAGCUAUUAGAGA | -1.24
CUCAAGUCCUGUGCUACACAUCGUAUGUACCGAAUCGGGCCGGGCCGGCCGGGAAAGUAUUAUGUUACGCCGUUCGGAUCUGCACUUCCA | -0.0987
UCCUCAAGUCCUGUGCUACACAUCGUAUGUACCGAAUCGGUGGUGGAAAGGAAAGUAUUAUGUUACGCCGUUCGGAUCUGCACUUCCAGC | -0.113

Repeated from above (series 2):
Sequence | E-score
CCTATCGA | -0.127
CGTCTCCC | 0.0943
GTCACGCA | 0.0713
AGAGGCAC | -0.1
CAATGCGA | -0.097
CCAGTAAA | 0.00592
AATCGTAA | -0.00575
CCTAAAAA | -0.129
CCAGTCAC | 0.0354
